Experimental data collected from several papers.
Every numbered part comes from another study and shows a few of its results, in no order.
UniProt P22607, sequence (whole entry, unmodified, looked up): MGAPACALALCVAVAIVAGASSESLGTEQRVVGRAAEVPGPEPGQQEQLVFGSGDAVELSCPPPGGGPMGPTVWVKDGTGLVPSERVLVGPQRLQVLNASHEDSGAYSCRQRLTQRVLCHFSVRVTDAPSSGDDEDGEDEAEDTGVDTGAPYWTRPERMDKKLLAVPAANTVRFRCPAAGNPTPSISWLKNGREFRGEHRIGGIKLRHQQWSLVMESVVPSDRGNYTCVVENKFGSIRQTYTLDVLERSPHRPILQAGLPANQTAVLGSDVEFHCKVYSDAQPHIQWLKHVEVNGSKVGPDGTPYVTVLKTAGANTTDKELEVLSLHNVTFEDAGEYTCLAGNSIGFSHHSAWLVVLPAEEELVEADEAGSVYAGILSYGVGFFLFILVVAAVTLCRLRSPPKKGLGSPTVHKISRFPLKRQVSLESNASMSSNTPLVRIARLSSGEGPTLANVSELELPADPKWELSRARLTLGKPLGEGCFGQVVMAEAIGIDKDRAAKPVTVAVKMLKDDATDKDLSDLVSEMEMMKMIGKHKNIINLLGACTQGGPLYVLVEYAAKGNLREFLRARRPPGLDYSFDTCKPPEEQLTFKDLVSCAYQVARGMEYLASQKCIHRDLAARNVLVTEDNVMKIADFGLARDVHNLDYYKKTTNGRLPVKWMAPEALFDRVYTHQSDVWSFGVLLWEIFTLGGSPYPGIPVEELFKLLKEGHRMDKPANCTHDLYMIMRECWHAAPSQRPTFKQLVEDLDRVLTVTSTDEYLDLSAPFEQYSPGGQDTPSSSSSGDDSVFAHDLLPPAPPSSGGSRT
UniProt Q9H093, sequence (whole entry, looked up): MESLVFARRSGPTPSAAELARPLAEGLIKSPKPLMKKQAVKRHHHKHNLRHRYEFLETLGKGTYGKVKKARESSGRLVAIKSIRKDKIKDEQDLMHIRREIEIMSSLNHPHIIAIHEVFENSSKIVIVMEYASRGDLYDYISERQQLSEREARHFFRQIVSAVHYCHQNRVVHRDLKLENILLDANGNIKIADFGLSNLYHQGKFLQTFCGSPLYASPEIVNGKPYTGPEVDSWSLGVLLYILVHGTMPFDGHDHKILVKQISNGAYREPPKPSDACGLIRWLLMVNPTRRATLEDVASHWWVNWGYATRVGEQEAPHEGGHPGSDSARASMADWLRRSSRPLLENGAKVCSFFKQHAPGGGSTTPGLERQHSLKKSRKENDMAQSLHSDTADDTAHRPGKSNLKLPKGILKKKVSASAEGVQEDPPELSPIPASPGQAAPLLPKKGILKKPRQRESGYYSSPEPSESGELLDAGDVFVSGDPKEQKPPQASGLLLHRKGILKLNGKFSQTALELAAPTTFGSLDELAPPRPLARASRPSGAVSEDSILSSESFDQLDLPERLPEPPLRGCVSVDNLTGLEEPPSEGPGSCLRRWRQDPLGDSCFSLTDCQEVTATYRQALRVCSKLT
UniProt Q8TD08, sequence (whole entry, looked up): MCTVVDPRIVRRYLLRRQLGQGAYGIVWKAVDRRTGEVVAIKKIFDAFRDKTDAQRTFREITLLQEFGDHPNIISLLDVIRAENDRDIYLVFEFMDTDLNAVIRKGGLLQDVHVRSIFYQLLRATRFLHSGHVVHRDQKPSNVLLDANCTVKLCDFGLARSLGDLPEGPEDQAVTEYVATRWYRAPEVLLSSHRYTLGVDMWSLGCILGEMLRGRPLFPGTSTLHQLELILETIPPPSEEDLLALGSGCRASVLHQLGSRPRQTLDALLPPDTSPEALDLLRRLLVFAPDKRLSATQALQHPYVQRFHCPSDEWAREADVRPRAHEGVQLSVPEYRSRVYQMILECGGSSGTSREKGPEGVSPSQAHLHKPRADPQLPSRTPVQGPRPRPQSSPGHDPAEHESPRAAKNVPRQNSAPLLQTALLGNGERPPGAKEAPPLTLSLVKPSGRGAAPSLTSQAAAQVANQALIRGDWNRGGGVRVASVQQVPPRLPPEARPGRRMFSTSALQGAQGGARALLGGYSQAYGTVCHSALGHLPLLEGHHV
UniProt Q9BYT3, sequence (whole entry, looked up): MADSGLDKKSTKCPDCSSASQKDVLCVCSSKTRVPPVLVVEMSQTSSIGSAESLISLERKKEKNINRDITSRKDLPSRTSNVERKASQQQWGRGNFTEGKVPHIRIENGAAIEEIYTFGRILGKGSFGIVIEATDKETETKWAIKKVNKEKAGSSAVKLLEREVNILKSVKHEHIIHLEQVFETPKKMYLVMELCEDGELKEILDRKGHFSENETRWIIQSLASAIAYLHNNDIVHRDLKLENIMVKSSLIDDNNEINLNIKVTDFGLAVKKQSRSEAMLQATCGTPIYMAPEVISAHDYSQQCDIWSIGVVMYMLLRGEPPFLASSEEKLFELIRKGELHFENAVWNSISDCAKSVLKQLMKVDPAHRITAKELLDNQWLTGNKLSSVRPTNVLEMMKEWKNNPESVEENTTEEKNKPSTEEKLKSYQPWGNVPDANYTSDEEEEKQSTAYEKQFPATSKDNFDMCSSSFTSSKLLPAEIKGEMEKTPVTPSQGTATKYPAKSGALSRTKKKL
UniProt Q00536, sequence (whole entry, looked up): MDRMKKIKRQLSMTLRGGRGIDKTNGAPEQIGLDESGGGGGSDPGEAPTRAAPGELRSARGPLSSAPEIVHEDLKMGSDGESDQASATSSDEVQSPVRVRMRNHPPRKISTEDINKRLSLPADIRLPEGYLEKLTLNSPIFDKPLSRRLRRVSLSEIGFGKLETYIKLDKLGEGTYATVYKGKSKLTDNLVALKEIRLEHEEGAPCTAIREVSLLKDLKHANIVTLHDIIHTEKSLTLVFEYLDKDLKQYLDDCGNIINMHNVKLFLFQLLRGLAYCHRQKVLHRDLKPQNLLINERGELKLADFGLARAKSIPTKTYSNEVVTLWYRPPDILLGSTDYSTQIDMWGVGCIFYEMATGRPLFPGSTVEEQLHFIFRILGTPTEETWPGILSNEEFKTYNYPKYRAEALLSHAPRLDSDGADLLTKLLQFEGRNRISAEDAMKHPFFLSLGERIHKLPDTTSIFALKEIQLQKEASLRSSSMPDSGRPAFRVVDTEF
UniProt Q9NYM4, sequence (whole entry, looked up): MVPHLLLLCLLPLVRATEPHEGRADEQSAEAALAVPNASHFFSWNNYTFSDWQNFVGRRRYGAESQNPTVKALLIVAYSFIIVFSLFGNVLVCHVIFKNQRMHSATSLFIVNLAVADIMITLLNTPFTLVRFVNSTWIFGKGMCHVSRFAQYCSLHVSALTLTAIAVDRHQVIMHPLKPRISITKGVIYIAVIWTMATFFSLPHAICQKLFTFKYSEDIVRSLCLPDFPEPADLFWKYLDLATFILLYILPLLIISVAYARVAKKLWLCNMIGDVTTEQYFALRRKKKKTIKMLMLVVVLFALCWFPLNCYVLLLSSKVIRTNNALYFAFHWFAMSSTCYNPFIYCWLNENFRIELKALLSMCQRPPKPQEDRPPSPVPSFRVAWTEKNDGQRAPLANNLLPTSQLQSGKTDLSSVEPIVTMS
UniProt Q9BXA7, sequence (whole entry, looked up): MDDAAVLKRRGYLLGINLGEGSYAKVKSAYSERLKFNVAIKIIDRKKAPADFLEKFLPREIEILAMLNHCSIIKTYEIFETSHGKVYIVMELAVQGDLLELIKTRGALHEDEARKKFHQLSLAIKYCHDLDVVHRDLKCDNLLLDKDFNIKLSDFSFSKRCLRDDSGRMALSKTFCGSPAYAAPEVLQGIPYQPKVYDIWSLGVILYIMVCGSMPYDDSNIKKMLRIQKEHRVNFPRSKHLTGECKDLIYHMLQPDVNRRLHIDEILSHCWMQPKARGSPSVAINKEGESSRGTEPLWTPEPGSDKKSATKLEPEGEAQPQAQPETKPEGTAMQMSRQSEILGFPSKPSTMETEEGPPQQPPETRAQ
UniProt Q9BXC1, sequence (whole entry, looked up): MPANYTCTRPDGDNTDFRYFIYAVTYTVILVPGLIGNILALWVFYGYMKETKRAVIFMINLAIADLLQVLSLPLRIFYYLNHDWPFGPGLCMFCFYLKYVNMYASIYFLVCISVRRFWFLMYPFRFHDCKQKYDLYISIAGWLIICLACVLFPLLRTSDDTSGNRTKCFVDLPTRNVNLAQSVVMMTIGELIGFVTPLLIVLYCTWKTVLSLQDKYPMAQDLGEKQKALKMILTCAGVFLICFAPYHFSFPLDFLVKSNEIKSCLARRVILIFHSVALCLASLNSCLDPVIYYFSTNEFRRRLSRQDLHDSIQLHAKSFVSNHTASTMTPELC
UniProt Q9P1P5, sequence (whole entry, looked up): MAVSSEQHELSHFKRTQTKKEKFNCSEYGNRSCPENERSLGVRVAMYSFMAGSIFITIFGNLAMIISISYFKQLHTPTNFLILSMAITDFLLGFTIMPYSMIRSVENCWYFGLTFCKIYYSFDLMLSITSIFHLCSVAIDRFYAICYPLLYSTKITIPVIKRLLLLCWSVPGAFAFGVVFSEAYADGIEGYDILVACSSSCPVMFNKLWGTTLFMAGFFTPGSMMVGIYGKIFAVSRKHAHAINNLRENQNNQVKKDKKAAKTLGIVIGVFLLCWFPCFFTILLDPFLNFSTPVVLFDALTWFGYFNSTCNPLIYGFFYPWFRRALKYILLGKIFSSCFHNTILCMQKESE

Block 1 — effect on: enzyme activity; action: inhibitor; concentration: 1 µM
SMILES: CC(C)S(=O)(=O)c1ccc2nccc(Nc3ccc4sc(C5CCCC5)nc4c3)c2c1
target | activity vs control [%]
cGMP-dependent protein kinase 2 (PRKG2, Homo sapiens, UniProt Q13237) | 118
Tyrosine-protein kinase BTK (BTK, Homo sapiens, UniProt Q06187) | 99
Interleukin-1 receptor-associated kinase 4 (IRAK4, Homo sapiens, UniProt Q9NWZ3) | 93
STE20-like serine/threonine-protein kinase (SLK, Homo sapiens, UniProt Q9H2G2) | 92
Serine/threonine-protein kinase 32A (STK32A, Homo sapiens, UniProt Q8WU08) | 102
Calcium/calmodulin-dependent protein kinase type IV (CAMK4, Homo sapiens, UniProt Q16566) | 100

Block 2 — Structure (SMILES): NC(N)=NC(=O)c1nc(Cl)c(N2CCCCCC2)nc1N; effect on: β-arrestin recruitment; action: agonist; technique: PRESTO-Tango; concentration: 10 µM; relative to: untreated
target | fold over basal
Probable G-protein coupled receptor 174 (Homo sapiens, UniProt Q9BXC1) | 1.23
Trace amine-associated receptor 2 (TAAR2, Homo sapiens, UniProt Q9P1P5) | 0.88 fold
Prostaglandin E2 receptor EP1 subtype (PTGER1, Homo sapiens, UniProt P34995) | 0.63
Probable G-protein coupled receptor 19 (GPR19, Homo sapiens, UniProt Q15760) | 1.36
Melanin-concentrating hormone receptor 1 (MCHR1, Homo sapiens, UniProt Q99705) | 1.13
Melanin-concentrating hormone receptor 2 (MCHR2, Homo sapiens, UniProt Q969V1) | 0.81
G-protein coupled receptor 83 (GPR83, Homo sapiens, UniProt Q9NYM4) | 0.64

Block 3 — effect on: cell-free assay; technique: competition with immobilised ligand; concentration: 1 µM
Structure (SMILES): CN1CCN(c2cnc3c(C4CCN(C(=O)c5ccc(OC(F)(F)F)cc5N)CC4)ncnc3c2)CC1
target | remaining binding [%]
Cyclin-dependent kinase 3 (CDK3, Homo sapiens, UniProt Q00526) | 100
MAP/microtubule affinity-regulating kinase 3 (MARK3, Homo sapiens, UniProt P27448) | 93
Testis-specific serine/threonine-protein kinase 1 (TSSK1B, Homo sapiens, UniProt Q9BXA7) | 100
Serine/threonine-protein kinase RIO2 (RIOK2, Homo sapiens, UniProt Q9BVS4) | 100
Mitogen-activated protein kinase 10 (MAPK10, Homo sapiens, UniProt P53779) | 100
Epidermal growth factor receptor (EGFR, Homo sapiens, UniProt P00533) | 99
Cyclin-dependent kinase 16 (CDK16, Homo sapiens, UniProt Q00536) | 100
Macrophage-stimulating protein receptor (MST1R, Homo sapiens, UniProt Q04912) | 90
Cyclin-dependent kinase 4, with cyclin D1 (CDK4, Homo sapiens, UniProt P11802) | 98
NUAK family SNF1-like kinase 2 (NUAK2, Homo sapiens, UniProt Q9H093) | 90
Ribosomal protein S6 kinase beta-1 (RPS6KB1, Homo sapiens, UniProt P23443) | 90
Fibroblast growth factor receptor 3 (FGFR3, Homo sapiens, UniProt P22607, G697C) | 100
Non-receptor tyrosine-protein kinase TYK2, JH2 (TYK2, Homo sapiens, UniProt P29597) | 100
Serine/threonine-protein kinase 33 (STK33, Homo sapiens, UniProt Q9BYT3) | 99
Serine/threonine-protein kinase ULK3 (ULK3, Homo sapiens, UniProt Q6PHR2) | 100
Serine/threonine-protein kinase NIM1 (NIM1K, Homo sapiens, UniProt Q8IY84) | 100
Mitogen-activated protein kinase 15 (MAPK15, Homo sapiens, UniProt Q8TD08) | 100
Serine/threonine-protein kinase D2 (PRKD2, Homo sapiens, UniProt Q9BZL6) | 100
Phosphatidylinositol 4,5-bisphosphate 3-kinase catalytic subunit alpha isoform (PIK3CA, Homo sapiens, UniProt P42336) | 95
TGF-beta receptor type-2 (TGFBR2, Homo sapiens, UniProt P37173) | 88
G protein-coupled receptor kinase 4 (GRK4, Homo sapiens, UniProt P32298) | 100
Serine/threonine-protein kinase Nek1 (NEK1, Homo sapiens, UniProt Q96PY6) | 85
Serine/threonine-protein kinase D1 (PRKD1, Homo sapiens, UniProt Q15139) | 85
Mitogen-activated protein kinase 14 (MAPK14, Homo sapiens, UniProt Q16539) | 99
Serine/threonine-protein kinase 25 (STK25, Homo sapiens, UniProt O00506) | 92

Block 4 — effect on: enzyme activity; action: inhibitor; concentration: 10 µM
Target: Calcium/calmodulin-dependent protein kinase type II subunit alpha (CAMK2A, Homo sapiens, UniProt Q9UQM7)
UniProt Q9UQM7, sequence (whole entry, looked up): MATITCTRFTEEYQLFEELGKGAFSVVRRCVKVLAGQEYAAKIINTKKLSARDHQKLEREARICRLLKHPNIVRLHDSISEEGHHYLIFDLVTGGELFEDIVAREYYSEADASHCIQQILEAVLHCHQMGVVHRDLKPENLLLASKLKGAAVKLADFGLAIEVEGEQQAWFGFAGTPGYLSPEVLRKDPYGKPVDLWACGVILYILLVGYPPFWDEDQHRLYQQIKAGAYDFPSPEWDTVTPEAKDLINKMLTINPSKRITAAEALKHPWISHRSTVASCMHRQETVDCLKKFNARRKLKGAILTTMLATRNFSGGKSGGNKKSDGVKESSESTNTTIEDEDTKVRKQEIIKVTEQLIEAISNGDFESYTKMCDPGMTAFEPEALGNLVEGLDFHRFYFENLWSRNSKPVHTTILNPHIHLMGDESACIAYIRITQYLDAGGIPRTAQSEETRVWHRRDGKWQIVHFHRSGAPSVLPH
Compound | inhibition [%]
CC(C)=CCc1cc2c(=O)cc(-c3ccc(O)cc3)oc2cc1O | -23
C[N+]1(C)[C@@H]2CC(OC(=O)C(O)(c3cccs3)c3cccs3)C[C@H]1[C@@H]1O[C@@H]12 (stereo partly shown) | 1
CC1(C)CCC[C@](C)([C@H]2CC[C@]3(C)[C@@H]2[C@H](O)C[C@@H]2[C@@]4(C)CC[C@H](O)C(C)(C)[C@@H]4[C@H](O)C[C@]23C)O1 | 13
CCC(=O)O[C@]1(C(C)=O)CC[C@H]2[C@@H]3CCC4=CC(=O)C=C[C@]4(C)[C@H]3[C@@H](O)C[C@@]21C | -2
N[C@@H](CCO)C(=O)O | -19
Oc1c(Cl)cc(Cl)c2cccnc12 | -3
CC(=O)O[C@H]1[C@H](O[C@H]2CC[C@]34C[C@]35CC[C@]3(C)[C@@H]([C@@]6(C)CC[C@@H](C(C)(C)O)O6)[C@@H](O)C[C@@]3(C)[C@@H]5C[C@H](O[C@@H]3O[C@H](CO)[C@@H](O)[C@H](O)[C@H]3O)[C@H]4C2(C)C)OC[C@@H](O)[C@@H]1O | -23
CC(C(O)c1ccc(O)cc1)N1CCC(Cc2ccccc2)CC1 (stereo not shown) | 5

Block 5 — action: inhibitor; concentration: 10 µM; relative to: control
Target: Diamine acetyltransferase 1 (Homo sapiens, UniProt P21673)
Target sequence (P21673 1-171): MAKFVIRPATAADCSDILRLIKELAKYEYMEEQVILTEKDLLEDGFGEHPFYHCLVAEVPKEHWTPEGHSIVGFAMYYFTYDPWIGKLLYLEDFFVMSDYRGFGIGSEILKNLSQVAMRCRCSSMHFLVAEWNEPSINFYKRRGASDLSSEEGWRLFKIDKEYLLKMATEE
Structure (SMILES) | remaining activity [%]
CC(=O)c1ccc[nH]1 | 85.2
O=C(O)/C=C/CCCCCCCCC(=O)O | 103
CC(C)=C1C/C=C(\C)CC/C=C(\C)CC1=O | 83.9
CC1=CC[C@@]23C[C@@H]1C(C)(C)[C@@H]2CC[C@H]3C | 80.8
C[C@@H]1O[C@@H](OC[C@H]2O[C@@H](Oc3c(-c4ccc(O)cc4)oc4cc(O)cc(O)c4c3=O)[C@H](O)[C@@H](O)[C@@H]2O)[C@H](O)[C@H](O)[C@H]1O | 110
COc1cc([C@H]2OC[C@H]3[C@@H]2CO[C@@H]3c2ccc(O[C@@H]3O[C@H](CO)[C@@H](O)[C@H](O)[C@H]3O)c(OC)c2)ccc1O[C@@H]1O[C@H](CO)[C@@H](O)[C@H](O)[C@H]1O | 99.8
